Measurements of several laboratories.
Each line is one published result; not all experiments were run side by side. ± marks the error that the study gave.
CALM1: CALM1 (Homo sapiens, UniProt P0DP23)
Tln1: Tln1 309-405 (Mus musculus, UniProt P26039)
Sequence of UniProt P26039 (whole entry, looked up): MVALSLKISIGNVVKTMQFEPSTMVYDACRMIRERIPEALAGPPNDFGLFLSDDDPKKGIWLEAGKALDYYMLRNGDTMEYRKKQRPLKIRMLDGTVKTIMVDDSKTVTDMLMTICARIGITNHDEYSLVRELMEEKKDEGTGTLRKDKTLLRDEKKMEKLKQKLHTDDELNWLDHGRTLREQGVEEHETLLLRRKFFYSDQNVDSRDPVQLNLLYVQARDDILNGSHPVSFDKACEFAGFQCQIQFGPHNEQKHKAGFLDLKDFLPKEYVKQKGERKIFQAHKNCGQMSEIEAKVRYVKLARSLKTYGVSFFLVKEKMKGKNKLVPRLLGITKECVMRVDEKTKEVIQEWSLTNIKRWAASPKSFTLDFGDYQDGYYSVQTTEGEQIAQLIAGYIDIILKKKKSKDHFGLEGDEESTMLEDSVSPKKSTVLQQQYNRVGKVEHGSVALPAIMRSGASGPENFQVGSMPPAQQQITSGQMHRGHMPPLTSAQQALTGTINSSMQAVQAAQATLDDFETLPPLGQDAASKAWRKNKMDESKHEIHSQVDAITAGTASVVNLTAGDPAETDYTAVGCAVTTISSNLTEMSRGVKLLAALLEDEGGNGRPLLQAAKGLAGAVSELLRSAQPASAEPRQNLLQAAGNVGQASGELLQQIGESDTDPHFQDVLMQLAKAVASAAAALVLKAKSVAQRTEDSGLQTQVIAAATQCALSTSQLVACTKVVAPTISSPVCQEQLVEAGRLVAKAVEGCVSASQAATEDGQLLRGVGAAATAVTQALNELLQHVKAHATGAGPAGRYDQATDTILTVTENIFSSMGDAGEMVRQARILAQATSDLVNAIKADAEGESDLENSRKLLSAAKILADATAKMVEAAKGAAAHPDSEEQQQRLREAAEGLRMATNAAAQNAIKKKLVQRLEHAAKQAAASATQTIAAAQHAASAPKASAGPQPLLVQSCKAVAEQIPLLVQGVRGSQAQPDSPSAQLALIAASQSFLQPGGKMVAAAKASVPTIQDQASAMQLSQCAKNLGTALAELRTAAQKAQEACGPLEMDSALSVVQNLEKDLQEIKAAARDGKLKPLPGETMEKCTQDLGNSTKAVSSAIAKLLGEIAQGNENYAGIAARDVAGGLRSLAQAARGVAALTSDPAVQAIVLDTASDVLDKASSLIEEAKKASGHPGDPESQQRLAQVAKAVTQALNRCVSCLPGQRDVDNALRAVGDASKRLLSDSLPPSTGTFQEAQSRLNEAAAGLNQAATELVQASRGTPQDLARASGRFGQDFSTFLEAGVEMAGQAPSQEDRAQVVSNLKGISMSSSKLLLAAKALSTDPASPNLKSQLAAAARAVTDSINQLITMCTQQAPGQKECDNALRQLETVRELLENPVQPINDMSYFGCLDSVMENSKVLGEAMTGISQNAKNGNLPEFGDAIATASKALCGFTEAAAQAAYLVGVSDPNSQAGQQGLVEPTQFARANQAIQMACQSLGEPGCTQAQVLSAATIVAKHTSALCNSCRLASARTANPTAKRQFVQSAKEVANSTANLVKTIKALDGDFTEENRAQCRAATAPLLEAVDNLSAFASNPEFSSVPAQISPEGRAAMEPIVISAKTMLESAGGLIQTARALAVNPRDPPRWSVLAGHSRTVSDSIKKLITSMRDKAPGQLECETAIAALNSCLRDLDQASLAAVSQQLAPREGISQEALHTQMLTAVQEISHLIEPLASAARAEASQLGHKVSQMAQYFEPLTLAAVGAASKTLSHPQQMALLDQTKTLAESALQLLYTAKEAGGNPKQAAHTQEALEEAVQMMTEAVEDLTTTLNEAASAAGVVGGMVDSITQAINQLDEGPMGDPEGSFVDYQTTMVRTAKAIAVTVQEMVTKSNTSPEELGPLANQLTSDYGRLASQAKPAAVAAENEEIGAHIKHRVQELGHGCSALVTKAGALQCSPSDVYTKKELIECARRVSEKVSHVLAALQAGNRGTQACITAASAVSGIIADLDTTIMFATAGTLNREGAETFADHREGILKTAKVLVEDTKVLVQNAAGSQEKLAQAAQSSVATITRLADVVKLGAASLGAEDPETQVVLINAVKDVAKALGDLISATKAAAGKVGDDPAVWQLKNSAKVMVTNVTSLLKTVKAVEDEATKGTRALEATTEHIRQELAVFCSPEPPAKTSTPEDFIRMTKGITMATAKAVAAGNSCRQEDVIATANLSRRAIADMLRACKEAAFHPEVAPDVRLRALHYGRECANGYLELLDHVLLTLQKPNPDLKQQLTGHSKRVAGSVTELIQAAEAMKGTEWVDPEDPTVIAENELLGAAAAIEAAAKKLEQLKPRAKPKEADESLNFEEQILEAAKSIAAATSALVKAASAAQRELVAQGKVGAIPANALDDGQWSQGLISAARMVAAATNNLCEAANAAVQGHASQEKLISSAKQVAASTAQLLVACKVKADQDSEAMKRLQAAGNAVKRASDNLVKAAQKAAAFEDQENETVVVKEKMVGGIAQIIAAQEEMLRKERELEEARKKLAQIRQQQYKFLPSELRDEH
B1: Kcnh1 7-136 (Mus musculus, UniProt Q60603); sequence looked up; chain RRGLVAPQNTFLENIVRRSNDTNFVLGNAQIVDWPIVYSNDGFCKLSGYHRAEVMQKSSACSFMYGELTDKDTVEKVRQTFENYEMNSFEILMYKKNRTPVWFFVKIAPIRNEQDKVVLFLCTFSDITAF
B2: BRAF kinase 448-723 K723G/P722S/S720E/L716E/S713E/Q709R/L706S/A688R/Y673S/K630S/V600E/L588N/Q562R/I551K (Homo sapiens, UniProt P15056); sequence looked up; chain DDWEIPDGQITVGQRIGSGSFGTVYKGKWHGDVAVKMLNVTAPTPQQLQAFKNEVGVLRKTRHVNILLFMGYSTKPQLAIVTQWCEGSSLYHHLHASETKFEMKKLIDIARQTARGMDYLHAKSIIHRDLKSNNIFLHEDNTVKIGDFGLATEKSRWSGSHQFEQLSGSILWMAPEVIRMQDSNPYSFQSDVYAFGIVLYELMTGQLPYSNINNRDQIIFMVGRGSLSPDLSKVRSNCPKRMKRLMAECLKKKRDERPSFPRILAEIEELARELSG
B3: Mdm2 153-308 (Rattus norvegicus, UniProt A0A0G2JVC1); sequence looked up; chain PSTSSRRRAISETEENTDELPGERQRKRHRALSFDESLGLCVLREICCERSSSSEATDTPSHQDLDDGVSDHSADCLDQDSVSDQFSVEFEVESLDSEDYSLSDEGHELSDEDDEVYRVTVYQAGESDADSFEGDPEISLADYWKCTSCNEMNPPL
B4: CFH domains 1108-1231 R1210C (Homo sapiens, UniProt P08603); sequence looked up; chain KCGPPPPIDNGDITSFPLSVYAPASSVEYQCQNLYQLEGNKRITCRNGQWSEPPKCLHPCVISREIMENYNIALRWTAKQKLYSRTGESVEFVCKRGYRLSSCSHTLRTTCWDGKLEYPTCAKR
B5: SSC1/SSC3 chimeric SBD; chain TPLSLGIETLGGVFTRLIPRNTTIPTKKSQIFSTAAAGQTSVEIRVFQGERELVRDNKLIGNFTLAGIPPAPKGVPQIEVTFDIDADGIINVSARDKATNKDSSITVAGSSGLSENEIEQMVNDAEKFKSQDEARKQAIETANKADQLANDTENSLKEFEGKVDKAEAQKVRDQITSLKELVSRSQAGDEVNDDDVGTKIDNLRTSSMKLFEQLYKNDSNNNNNNNGNNAESGETKQ
B6: DTNB 422-535 (Homo sapiens, UniProt O60941-1); sequence looked up; chain PPTDLSFNFDANKQQRQLIAELENKNREILQEIQRLRLEHEQASQPTPEKAQQNPTLLAELRLLRQRKDELEQRMSALQESRRELMVQLEELMKLLKEEEQKQAAQATGSPHTS
B7: PUX6 269-435 (Arabidopsis thaliana, UniProt F4IXN6); chain VTYTVTIWRNGFTVDDDPFKSLDDPENAAFLEYMPEDNKFGVPTTTRSTSCSSQTHQELQTLAGSESTSTEPPLTTTQPPSMSSLVVDPAAPTTSIQLILADSTRIVTQFNTHHTIRDIRCFIDTSRPDGSKDYQLLIMGSPPTPLSDFDQTIEKAGIANSVLVQKF
B8: acpP (Escherichia coli, UniProt P0A6A8); 4-DMN-phosphopantetheine; sequence looked up; chain MSTIEERVKKIIGEQLGVKQEEVTNNASFVEDLGADSLDTVELVMALEEEFDTEIPDEEAEKITTVQAAIDYINGHQA
B9: UBE3A 1-64 (Homo sapiens, UniProt Q05086-2); sequence looked up; chain MKRAAAKHLIERYYHQLTEGCGNEACTNEFCASCPTFLRMDNNAAAIKALELYKINAKLCDPHP
B10: DNAJB11 23-358 (Homo sapiens, UniProt Q9UBS4); chain GRDFYKILGVPRSASIKDIKKAYRKLALQLHPDRNPDDPQAQEKFQDLGAAYEVLSDSEKRKQYDTYGEEGLKDGHQSSHGDIFSHFFGDFGFMFGGTPRQQDRNIPRGSDIIVDLEVTLEEVYAGNFVEVVRNKPVARQAPGKRKCNCRQEMRTTQLGPGRFQMTQEVVCDECPNVKLVNEERTLEVEIEPGVRDGMEYPFIGEGEPHVDGEPGDLRFRIKVVKHPIFERRGDDLYTNVTISLVESLVGFEMDITHLDGHKVHISRDKITRPGAKLWKKGEGLPNFDNNNIKGSLIITFDVDFPKEQLTEEAREGIKQLLKQGSVQKVYNGLQGY
B11: PUX5 301-421 F395A (Arabidopsis thaliana, UniProt Q7Y175); chain KNPFQGVGRTLGASGSGSSSAPQASSAPMNVAPAPSRGLVVDPAAPTTSIQLRLADGTRLVSRFNNHHTVRDVRGFIDASRPGGSKEYQLLTMGAPPKQLTELDQTIEQAGIANAVVIQKF
B12: C1S 438-688 P520A/E521A/S632A (Homo sapiens, UniProt P09871); chain IIGGSDADIKNFPWQVFFDNPWAGGALINEYWVLTAAHVVEGNREPTMYVGSTSVQTSRLAKSKMLTPEHVFIHPGWKLLEVAAGRTNFDNDIALVRLKDPVKMGPTVSPICLPGTSSDYNLMDGDLGLISGWGRTEKRDRAVRLKAARLPVAPLRKCKEVKVEKPTADAEAYVFTPNMICAGGEKGMDSCKGDAGGAFAVQDPNDKTKFYAAGLVSWGPQCGTYGLYTRVKNYVDWIMKTMQENSTPRED
B13: Cacna1c 1647-1777 (Mus musculus, UniProt Q01815); sequence looked up; chain NALSLQAGLRTLHDIGPEIRRAISGDLTAEEELDKAMKEAVSAASEDDIFRRAGGLFGNHVTYYQSDSRGNFPQTFATQRPLHINKTGNNQADTESPSHEKLVDSTFTPSSYSSTGSNANINNANNTALGR
B14: LLGL2 13-978 (Homo sapiens, UniProt Q6P1M3); Hilyte488 N-terminal label; chain RERLKRDLFQFNKTVEHGFPHQPSALGYSPSLRILAIGTRSGAIKLYGAPGVEFMGLHQENNAVTQIHLLPGQCQLVTLLDDNSLHLWSLKVKGGASELQEDESFTLRGPPGAAPSATQITVVLPHSSCELLYLGTESGNVFVVQLPAFRALEDRTISSDAVLQRLPEEARHRRVFEMVEALQEHPRDPNQILIGYSRGLVVIWDLQGSRVLYHFLSSQQLENIWWQRDGRLLVSCHSDGSYCQWPVSSEAQQPEPLRSLVPYGPFPCKAITRILWLTTRQGLPFTIFQGGMPRASYGDRHCISVIHDGQQTAFDFTSRVIGFTVLTEADPAATFDDPYALVVLAEEELVVIDLQTAGWPPVQLPYLASLHCSAITCSHHVSNIPLKLWERIIAAGSRQNAHFSTMEWPIDGGTSLTPAPPQRDLLLTGHEDGTVRFWDASGVCLRLLYKLSTVRVFLTDTDPNENFSAQGEDEWPPLRKVGSFDPYSDDPRLGIQKIFLCKYSGYLAVAGTAGQVLVLELNDEAAEQAVEQVEADLLQDQEGYRWKGHERLAARSGPVRFEPGFQPFVLVQCQPPAVVTSLALHSEWRLVAFGTSHGFGLFDHQQRRQVFVKCTLHPSDQLALEGPLSRVKSLKKSLRQSFRRMRRSRVSSRKRHPAGPPGEAQEGSAKAERPGLQNMELAPVQRKIEARSAEDSFTGFVRTLYFADTYLKDSSRHCPSLWAGTNGGTIYAFSLRVPPAERRMDEPVRAEQAKEIQLMHRAPVVGILVLDGHSVPLPEPLEVAHDLSKSPDMQGSHQLLVVSEEQFKVFTLPKVSAKLKLKLTALEGSRVRRVSVAHFGSRRAEDYGEHHLAVLTNLGDIQVVSLPLLKPQVRYSCIRREDVSGIASCVFTKYGQGFYLISPSEFERFSLSTKWLVEPRCLVDSAETKNHRPGNGAGPKKAPSRARNSGTQSDGEEKQPGLVMER
Sequence of UniProt P54609 (whole entry, looked up): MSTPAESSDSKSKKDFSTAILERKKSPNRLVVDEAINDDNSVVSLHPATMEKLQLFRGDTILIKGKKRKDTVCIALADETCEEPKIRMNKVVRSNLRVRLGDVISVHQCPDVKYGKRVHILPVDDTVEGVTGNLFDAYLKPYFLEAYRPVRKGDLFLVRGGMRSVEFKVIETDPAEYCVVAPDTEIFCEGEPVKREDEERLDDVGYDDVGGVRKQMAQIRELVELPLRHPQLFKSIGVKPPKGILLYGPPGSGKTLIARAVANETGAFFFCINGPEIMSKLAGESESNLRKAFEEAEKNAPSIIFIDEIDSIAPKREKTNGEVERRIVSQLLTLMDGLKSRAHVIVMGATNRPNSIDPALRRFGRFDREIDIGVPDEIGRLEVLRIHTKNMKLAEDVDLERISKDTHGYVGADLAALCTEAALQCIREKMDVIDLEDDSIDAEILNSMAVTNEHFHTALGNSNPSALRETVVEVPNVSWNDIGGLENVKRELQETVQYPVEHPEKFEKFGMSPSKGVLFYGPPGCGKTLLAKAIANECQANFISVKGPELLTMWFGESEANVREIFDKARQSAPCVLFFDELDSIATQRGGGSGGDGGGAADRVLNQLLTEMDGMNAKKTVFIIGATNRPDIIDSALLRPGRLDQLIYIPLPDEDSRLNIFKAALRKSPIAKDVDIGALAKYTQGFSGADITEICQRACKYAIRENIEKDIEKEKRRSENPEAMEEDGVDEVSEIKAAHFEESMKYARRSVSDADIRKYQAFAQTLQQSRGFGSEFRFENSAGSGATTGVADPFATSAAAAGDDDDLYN
Sequence of UniProt O95967 (whole entry, looked up): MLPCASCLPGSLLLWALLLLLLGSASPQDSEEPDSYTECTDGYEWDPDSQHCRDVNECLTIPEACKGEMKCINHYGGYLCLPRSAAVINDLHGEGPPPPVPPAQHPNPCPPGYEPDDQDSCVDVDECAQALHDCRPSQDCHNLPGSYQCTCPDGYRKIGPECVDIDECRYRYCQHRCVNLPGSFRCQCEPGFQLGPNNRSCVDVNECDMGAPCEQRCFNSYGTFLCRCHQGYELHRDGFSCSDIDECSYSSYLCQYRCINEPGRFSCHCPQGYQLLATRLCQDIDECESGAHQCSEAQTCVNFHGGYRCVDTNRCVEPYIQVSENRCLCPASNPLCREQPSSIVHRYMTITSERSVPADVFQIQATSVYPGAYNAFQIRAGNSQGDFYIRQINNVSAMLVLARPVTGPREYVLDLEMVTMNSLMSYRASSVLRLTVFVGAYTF
Sequence of UniProt P25963 (whole entry, looked up): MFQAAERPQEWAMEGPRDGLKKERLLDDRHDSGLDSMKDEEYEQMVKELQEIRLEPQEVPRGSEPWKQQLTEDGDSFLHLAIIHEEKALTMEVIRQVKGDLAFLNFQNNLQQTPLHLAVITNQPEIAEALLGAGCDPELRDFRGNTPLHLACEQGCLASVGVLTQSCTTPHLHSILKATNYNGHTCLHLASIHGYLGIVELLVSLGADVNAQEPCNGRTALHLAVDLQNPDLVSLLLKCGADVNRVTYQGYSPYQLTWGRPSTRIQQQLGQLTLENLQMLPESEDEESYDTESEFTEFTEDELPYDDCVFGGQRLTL
Sequence of UniProt P11021 (whole entry, looked up): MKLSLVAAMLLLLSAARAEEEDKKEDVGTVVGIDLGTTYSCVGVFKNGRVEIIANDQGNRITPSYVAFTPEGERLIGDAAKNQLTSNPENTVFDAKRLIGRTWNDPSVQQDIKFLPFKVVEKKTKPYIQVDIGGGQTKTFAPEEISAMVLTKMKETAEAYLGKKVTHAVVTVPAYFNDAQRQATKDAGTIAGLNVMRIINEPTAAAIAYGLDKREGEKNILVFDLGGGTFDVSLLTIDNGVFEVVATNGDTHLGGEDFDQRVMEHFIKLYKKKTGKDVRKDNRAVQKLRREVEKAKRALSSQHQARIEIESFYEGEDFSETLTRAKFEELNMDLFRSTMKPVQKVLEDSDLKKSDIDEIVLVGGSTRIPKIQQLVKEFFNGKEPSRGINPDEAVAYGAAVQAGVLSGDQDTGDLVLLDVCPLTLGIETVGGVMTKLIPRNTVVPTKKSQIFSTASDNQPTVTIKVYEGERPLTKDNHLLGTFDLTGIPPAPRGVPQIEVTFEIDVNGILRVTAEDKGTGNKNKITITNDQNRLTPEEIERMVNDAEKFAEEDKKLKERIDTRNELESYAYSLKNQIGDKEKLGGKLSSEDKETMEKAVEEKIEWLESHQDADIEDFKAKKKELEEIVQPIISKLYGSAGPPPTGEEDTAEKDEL
Sequence of UniProt P0A6Q3 (whole entry, looked up): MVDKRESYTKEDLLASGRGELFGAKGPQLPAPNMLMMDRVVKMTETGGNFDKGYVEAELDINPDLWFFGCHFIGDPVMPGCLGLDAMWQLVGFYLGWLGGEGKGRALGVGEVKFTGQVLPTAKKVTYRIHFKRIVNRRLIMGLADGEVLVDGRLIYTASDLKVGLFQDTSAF

Molecule	partner	assay	test system	conditions	Kd
B1 (Kcnh1 7-136)	Kcnh1 552-708 (Mus musculus, UniProt Q60603)	SPR		25 °C, two-state model, added: chlorpromazine 30 µM	1.6 µM
B2	MAP2K1 (Homo sapiens, UniProt Q02750)	BLI			0.0324 ± 0.00134 µM
SCN2A IQ region I1911V (Homo sapiens) (sequence not shown)	CALM1	fluorescence titration		pH 7.4, 22 °C, added: calcium	0.16 µM
Ybx1 (Mus musculus, UniProt P62960)	Purb R297Q (Mus musculus)	ELISA			0.0428 ± 0.0057 µM
B3 (Mdm2 153-308)	Arrb2 (Rattus norvegicus, UniProt P29067)	BLI			20.9 µM
CDH2 EC5 (Homo sapiens)	FGB residues 15-66, dimer (Homo sapiens)	ELISA			0.0813 µM
B4 (CFH domains 1108-1231 R1210C)	C3 C3dg 955-1303 (Homo sapiens, UniProt P01024)	SPR			2.4 ± 0.1 µM
B5 (SSC1/SSC3 chimeric SBD)	GOT2 mitochondrial targeting sequence, fluorescein label on cysteine (Gallus gallus)	fluorescence polarization			20.8 ± 0.983 µM
B6 (DTNB 422-535)	DMD 3365-3685 (Homo sapiens, UniProt P11532-1)	ITC			6.66 µM
B7 (PUX6 269-435)	CDC48A 1-190 (Arabidopsis thaliana, UniProt P54609)	BLI		25 °C	0.0643 ± 0.0003 µM
B8 (acpP)	fabA (Escherichia coli, UniProt P0A6Q3)	fluorescence titration			2.85 µM
B9 (UBE3A 1-64)	PSMD4 305-377 (Homo sapiens, UniProt P55036)	ITC			0.204 ± 0.017 µM
ENAH EVH1 domain (Homo sapiens)	DSCAM peptide (Homo sapiens)	BLI			> 150 µM
F9 heavy and light chains, activated (UniProt P00740)	F8 activated, A1/A2/A3-C1-C2 R336Q (Homo sapiens)	FXa generation, factor Xa generation rate		added: FX	0.0013 µM
B10 (DNAJB11 23-358)	HSPA5 28-654 (Homo sapiens, UniProt P11021)	MST			8.5 ± 1 µM
B11 (PUX5 301-421 F395A)	CDC48A 1-463 (Arabidopsis thaliana, UniProt P54609)	ITC		25 °C	3.3 ± 0.2 µM

Molecule	partner	assay	test system	conditions	Kd
SCN2A fragment Q1913R (Homo sapiens) (sequence not shown)	CALM1	fluorescence titration		pH 7.4, 22 °C, added: calcium	0.006 µM
PKLPPKTYKREH (SOS1 proline-rich peptide, 1303-1314)	GRB2 1-58 (Homo sapiens, UniProt P62993)	NMR titration	peptide		660 µM
FBLN4, N-glycans removed (Homo sapiens, UniProt O95967)	ELN 27-724 (Homo sapiens, UniProt P15502-2)	SPR			0.0027 µM
KLLITIHDRKEFAKFEEERARAKWDTANNPLAKEATSTFTNITYRGT (ITGB3 742-788 Y747A (Homo sapiens, UniProt P05106); sequence looked up)	Tln1	NMR titration			1320 µM
GCVRLHESCLGQQVPCCDPAATCYCTGRGDEKLRCYCR (designed peptide AgRP scaffold)	ITGAV/ITGB3 U87MG cells (Homo sapiens)	flow cytometry	designed binder, U87MG		0.013 µM
GSGASGTSKCCYSLPATT (designed peptide)	ERBB2 23-652 (Homo sapiens, UniProt P04626)	ELISA	peptide		1.7 ± 0.6 µM
ARTKQTARKSTGGKAPRKQ (H3C1 residues 1-19)	RBBP4 (Homo sapiens, UniProt Q09028)	ITC	peptide		2 µM
Histone H3.1 fragment (Homo sapiens)	YEATS2 200-349 (Homo sapiens, UniProt Q9ULM3)	ITC			> 1000 µM
DDRHRIEEKRKRTYETFKSIMKKSPFNGP (Rela 293-321 (Mus musculus, UniProt Q04207); sequence looked up)	NFKBIA 67-206 (Homo sapiens, UniProt P25963)	ITC	peptide		0.371 ± 0.001 µM
B12 (C1S 438-688 P520A/E521A/S632A)	SERPING1 111-500 (Homo sapiens, UniProt P05155)	SPR		steady-state, added: Ca2+	10.1 µM
KLLMIIHDRREFAKFEKEKMNAKWDTGNNPLYKSAVTTVVNPKYEGK (ITGB1 752-798 E779N/I782L (Homo sapiens, UniProt P05556-1); sequence looked up)	Tln1	NMR titration			882 µM
B13 (Cacna1c 1647-1777)	Jph2 1-440 S165V (Mus musculus, UniProt Q9ET78)	ITC			8.87 µM
B14 (LLGL2 13-978)	PRKCI/PARD6B 1-596, activation loop phosphorylated	fluorescence polarisation		added: ADP	0.0074 µM
FUS (Homo sapiens, UniProt P35637)	TNPO1 (Homo sapiens, UniProt Q92973-2)	fluorescence polarisation			0.0432 ± 0.0105 µM
ALLLSAPRR (P5 peptide; fluorescein label)	SSC1 mature (Saccharomyces cerevisiae, UniProt P0CS90)	fluorescence polarization	peptide	25 nM	0.28 µM
protein (Arabidopsis thaliana, UniProt Q9SJV0)	CDC48A (Arabidopsis thaliana, UniProt P54609)	ITC		added: AMPPNP	3.1 µM

A few entries again:
Molecule	partner	assay	test system	conditions	Kd
B4 (CFH domains 1108-1231 R1210C)	C3 C3dg 955-1303 (Homo sapiens, UniProt P01024)	SPR			2.4 ± 0.1 µM
B5 (SSC1/SSC3 chimeric SBD)	GOT2 mitochondrial targeting sequence, fluorescein label on cysteine (Gallus gallus)	fluorescence polarization			20.8 ± 0.983 µM
B6 (DTNB 422-535)	DMD 3365-3685 (Homo sapiens, UniProt P11532-1)	ITC			6.66 µM
B7 (PUX6 269-435)	CDC48A 1-190 (Arabidopsis thaliana, UniProt P54609)	BLI		25 °C	0.0643 ± 0.0003 µM
